Published values collected from several papers.
Each line is one published result; not all experiments were run side by side. ± gives the spread as reported.
FGFR3: Fibroblast growth factor receptor 3 (FGFR3, Homo sapiens, UniProt P22607)
Sequence of UniProt P22607 (whole entry, looked up): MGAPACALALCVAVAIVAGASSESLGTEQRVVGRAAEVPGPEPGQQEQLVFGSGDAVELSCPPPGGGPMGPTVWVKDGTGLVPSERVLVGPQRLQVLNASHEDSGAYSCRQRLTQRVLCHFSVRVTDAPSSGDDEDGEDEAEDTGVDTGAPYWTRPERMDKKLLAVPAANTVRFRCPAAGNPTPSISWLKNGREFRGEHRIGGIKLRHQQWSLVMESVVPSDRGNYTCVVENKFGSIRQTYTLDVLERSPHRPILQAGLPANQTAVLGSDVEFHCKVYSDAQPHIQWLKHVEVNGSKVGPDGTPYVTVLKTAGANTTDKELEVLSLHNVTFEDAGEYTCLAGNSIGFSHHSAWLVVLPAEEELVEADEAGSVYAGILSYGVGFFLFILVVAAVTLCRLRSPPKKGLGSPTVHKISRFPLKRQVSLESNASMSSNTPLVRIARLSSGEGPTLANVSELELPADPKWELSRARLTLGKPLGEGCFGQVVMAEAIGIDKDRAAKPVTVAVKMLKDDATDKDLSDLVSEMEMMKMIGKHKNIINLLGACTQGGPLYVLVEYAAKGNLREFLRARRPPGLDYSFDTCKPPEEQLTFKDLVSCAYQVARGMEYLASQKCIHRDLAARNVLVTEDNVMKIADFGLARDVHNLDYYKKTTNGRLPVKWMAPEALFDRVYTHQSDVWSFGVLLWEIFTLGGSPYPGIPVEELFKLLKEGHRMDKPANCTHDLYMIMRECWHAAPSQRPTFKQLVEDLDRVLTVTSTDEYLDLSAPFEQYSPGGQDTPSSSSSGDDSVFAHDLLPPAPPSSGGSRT
FGFR3 extracellular domain: Fibroblast growth factor receptor 3, extracellular domain (FGFR3, Homo sapiens, UniProt P22607)

SMILES	target	assay	conditions	scale	endpoint	result
c1cnc2ccc(Nc3nc(NC4CC4)c4nc[nH]c4n3)cc2c1	FGFR3	kinase activity, inhibitor, SelectScreen kinase profiling	1 µM	reference: control	remaining activity	61%
[2H]c1cc(C)c(NC(=O)c2cnc(Nc3cc(N4CCCCC4)nc(C)n3)s2)c(Cl)c1	FGFR3	–	0.01 µM	–	inhibition	< 30%
COc1cc(F)ccc1-c1ncnc(Nc2cccc(C[S@](C)(=N)=O)c2)n1	FGFR3	kinase activity	10 µM, added: 10 µM ATP	–	remaining activity	83%
Cc1cc(Nc2cc(N3CCN(C)CC3)nc(Sc3ccc(NC(=O)C4CC4)cc3)n2)[nH]n1	FGFR3	kinase activity, KinaseProfiler	0.03 µM, species human	reference: control	remaining activity	92%
CC[C@H](C)[C@H](NC(=O)[C@@H]1CSCc2cc3cc(c2)CSC[C@H](NC(=O)[C@H](C(C)C)NC(=O)CNC(=O)[C@H](CCCCN)NC(=O)[C@@H](NC(=O)[C@H](CCSC)NC(C)=O)CSC3)C(=O)N2CCC[C@H]2C(=O)N[C@@H](Cc2ccccc2)C(=O)N[C@@H](CO)C(=O)N[C@@H](C(C)C)C(=O)N1)C(=O)N[C@@H](C)C(=O)N[C@@H](CCCNC(=N)N)C(=O)N[C@@H](CC(C)C)C(=O)NCC(=O)N[C@@H](CO)C(=O)NCC(=O)N[C@@H](CO)C(=O)NCC(=O)N[C@@H](CO)C(=O)N[C@@H](CC(=O)O)C(=O)N[C@@H](Cc1ccc(O)cc1)C(=O)N[C@@H](CCCCN)C(=O)N[C@@H](CC(=O)O)C(=O)N[C@@H](CC(=O)O)C(=O)N[C@@H](CC(=O)O)C(=O)N[C@@H](CC(=O)O)C(=O)N[C@@H](CCCCN)C(=O)N[C@@H](CCCCN=[N+]=[N-])C(N)=O	FGFR3 extracellular domain	binding, biolayer interferometry	concentration not given	–	BLI response	0.0328 RU
CC#CC(=O)N1CCC[C@H]1c1nc(-c2ccc(C(=O)Nc3ccccn3)cc2)c2c(N)nccn12	FGFR3	kinase activity, inhibitor, HotSpot radiometric	100 nM, added: ATP 10 µM	–	remaining activity	93 ± 0.3%
C=CC(=O)N1CCC(COCC(=O)N2CCN(c3nc(-c4cnc(N)nc4C(F)F)nc(N4CCOC[C@@H]4C)n3)CC2)CC1	FGFR3	KINOMEscan	1 µM	–	remaining binding	100%
CSCC[C@H](NC(C)=O)C(=O)N[C@@H](Cc1ccccc1)C(=O)N[C@H](C(=O)NCC(=O)N[C@@H](Cc1c[nH]cn1)C(=O)N[C@H]1CSCc2cc3cc(c2)CSC[C@@H](C(=O)N[C@H](C(=O)N[C@@H](CCCNC(=N)N)C(=O)N[C@@H](Cc2ccc(O)cc2)C(=O)N[C@@H](Cc2ccc(O)cc2)C(=O)NCC(=O)N[C@@H](CO)C(=O)NCC(=O)N[C@@H](CO)C(=O)NCC(=O)N[C@@H](CO)C(=O)N[C@@H](CC(=O)O)C(=O)N[C@@H](Cc2ccc(O)cc2)C(=O)N[C@@H](CCCCN)C(=O)N[C@@H](CC(=O)O)C(=O)N[C@@H](CC(=O)O)C(=O)N[C@@H](CC(=O)O)C(=O)N[C@@H](CC(=O)O)C(=O)N[C@@H](CCCCN)C(=O)N[C@@H](CCCCN=[N+]=[N-])C(N)=O)C(C)C)NC(=O)[C@H](CSC3)NC(=O)CNC(=O)[C@H](CC(C)C)NC(=O)[C@H]([C@@H](C)O)NC1=O)[C@@H](C)O	FGFR3 extracellular domain	binding, biolayer interferometry	concentration not given	–	BLI response	0.0633 RU
COc1ccc(F)cc1C(=O)NCc1ccc(-c2nn([C@@H](C)C(F)(F)F)c(N)c2C(N)=O)cc1	FGFR3	kinase activity, inhibitor, HotSpot radiometric	1000 nM, added: ATP at Km	–	remaining activity	97.6 ± 0.8%

Excerpt of the above:
SMILES	target	assay	conditions	scale	endpoint	result
Cc1cc(Nc2cc(N3CCN(C)CC3)nc(Sc3ccc(NC(=O)C4CC4)cc3)n2)[nH]n1	FGFR3	kinase activity, KinaseProfiler	0.03 µM, species human	reference: control	remaining activity	92%
